Measurements from different studies.
A part holds a random share of what one study measured.

Study 1 — method: RNA Bind-n-Seq; molecule type: RNA; medium: in vitro; concentration: 365 nM; reference: no-protein control; direction: higher = stronger binding
Target: RNA binding protein fox-1 homolog 2, RRM domain, GST-SBP tag (RBFOX2, Homo sapiens, UniProt O43251-10, residues 100-194)
Notes: natural RNA segment, single round, ends assumed
Target sequence (chain): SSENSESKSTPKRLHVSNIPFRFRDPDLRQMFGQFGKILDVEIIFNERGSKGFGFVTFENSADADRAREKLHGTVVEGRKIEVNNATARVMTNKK
`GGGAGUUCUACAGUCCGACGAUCUGAUCUUGCUGCUGUAGGAAGCUUGAUAGGGCAUUUGGCUCAAAUUUCAGAAGGCCUCGCUCCUGACCUAAUUUCUCAAAGCUCCGGUAGUUCUAGACCCCUCCAAUUUCUGGAAUUCUCGGGUGCCAA` — result for “RBNS enrichment (R)”: 0.325.
`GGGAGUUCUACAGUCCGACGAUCUCCACAACCCUGGUGUAAUACAGAGUCCAGCCAUUACCAUUCUCCUGCGUUACUUUGACAUGGGAUUUUUUUUUUUUUUUGUACAUUUUGGCUGCAGUAUUGGUGGUAGAUGGAAUUCUCGGGUGCCAA` — result for “RBNS enrichment (R)”: 0.496.
`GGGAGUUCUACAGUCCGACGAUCAUUUAUAUAUUGUGAUGAGGAGUACUUUCUGAAGAGUACUUCGUAUUUUUUUUUAAUUGCCUUGUUUGCCUUCAACUUCCUUGAUUUUCAUAGUUUACAUGGGUGUGUGUUGGAAUUCUCGGGUGCCAA` — result for “RBNS enrichment (R)”: 1.22.
`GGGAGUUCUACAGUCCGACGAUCAUUUUAAGGCAAAACAGUGUUUACUGUGAUGGGCAGAACAGCCUUUUGUAUCUAGGAGUCCAUUUGAGUUCUUUCCAAUAUUUCCAUAUCGUUCAUAAAUGUGUCUGGGGUGGAAUUCUCGGGUGCCAA`: “RBNS enrichment (R)” 0.574.
`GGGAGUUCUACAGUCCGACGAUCGCCCAACAUGACAAUUCUGGCUAUGAAAAUUAUGUUUAAACUGUGUAUGAUCUAUUUUAUGUGCUCUAUGUUCCCAUUUGUUUGUUUGGUCUGGACAGUGGUUCUGGAAUUGGAAUUCUCGGGUGCCAA` — result for “RBNS enrichment (R)”: 1.56.
`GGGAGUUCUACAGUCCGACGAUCAGGUGUGCCUUGUGUCUGUGCUUCUCCGCUCUCUGAAAGGAUGGAUGGAUCUGAAGUUCUCAGCCCUCACCCCACACUGCUGGAAUCUUCUGUAGAGCUGCCUGCCAAGCUGGAAUUCUCGGGUGCCAA`: “RBNS enrichment (R)” 0.249.
`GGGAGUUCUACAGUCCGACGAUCUGGACUGGCUAUAACCAUAAGCCAGGCGCUUUCACCAAGAUGGCUGGUGGCCAAGGUGGGCAGUAGGCAUGAGCUUCCAGCAGGAAAGGACAAGAGAGUAGGCAGGCUUAUGGAAUUCUCGGGUGCCAA`: “RBNS enrichment (R)” 1.76.
`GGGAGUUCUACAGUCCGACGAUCGUGAUAGACAGGGACCCCUUCUACUGAACCUUUGAGGAAAGGAGGAAGGAAGAAAUGCGUUUAGAUCUUGGAUGCAGACCUUUCAAAGGGUUAAAUGUAACCAUAUGGAUUGGAAUUCUCGGGUGCCAA`: “RBNS enrichment (R)” 0.338.

Study 2 — read-out: enzyme activity; action: inhibitor; concentration: 20 µM; notes: primary screen
Target: Replicase polyprotein 1ab, main protease (rep, Severe acute respiratory syndrome coronavirus 2, UniProt P0DTD1)
`COCCCOc1ccnc(C[S+]([O-])c2nc3ccccc3[nH]2)c1C` (stereo not shown) gave an inhibition of 94.3%.
`CN1Cc2ccccc2[C@@H]2c3cccc4[nH]cc(c34)C[C@H]21` has an inhibition of 52.7%.
`O=[N+]([O-])C(Br)(CO)CO` has an inhibition of 99.9%.

Study 3 — method: protein-binding microarray; molecule type: double-stranded DNA, one strand shown; medium: in vitro; concentration: 2540 nM top; notes: 60-bp whole probe; together with: salmon DNA 0.4 mg/ml; reference: random background probes; direction: higher = stronger binding; shared flanks, not repeated: GCCTAGCAC … GTCTTGATTCGCTTGACGCTGCTG
Target: Interferon regulatory factor 3, full length, phosphomimetic (IRF3, Homo sapiens, UniProt Q14653, residues 1-427, S386D/S396D/S398D/S402D/T404D/S405D)
Target sequence (chain): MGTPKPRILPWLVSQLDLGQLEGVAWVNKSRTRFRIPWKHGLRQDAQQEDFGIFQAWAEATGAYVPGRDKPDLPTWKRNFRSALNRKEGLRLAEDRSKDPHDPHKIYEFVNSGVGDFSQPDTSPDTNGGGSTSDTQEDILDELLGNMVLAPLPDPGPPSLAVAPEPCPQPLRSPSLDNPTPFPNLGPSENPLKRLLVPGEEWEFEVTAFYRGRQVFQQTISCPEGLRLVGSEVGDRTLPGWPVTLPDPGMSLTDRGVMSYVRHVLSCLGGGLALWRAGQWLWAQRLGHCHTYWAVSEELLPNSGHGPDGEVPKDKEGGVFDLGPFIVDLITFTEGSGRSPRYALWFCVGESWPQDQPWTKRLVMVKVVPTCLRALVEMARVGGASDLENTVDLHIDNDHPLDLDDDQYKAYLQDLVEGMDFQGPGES
Under “fitted relative affinity”, `TCAAATGTCCTTTCTCCAACTGTGCTA` is recorded as 5.17 z-score.
For `GACGATATCGGGCTTCGAGACGTGCTA`, “fitted relative affinity” read -0.225 z-score.
`GTAGGTCTCGGTCTCGGTTAGTGCTAG`: “fitted relative affinity” 1.19 z-score.
Under “fitted relative affinity”, `GACGGTTTCGTGTTTCGGGACGTGCTA` is recorded as 4.25 z-score.
`TTAGGTATCGGTCTCGGTCAGTGCTAG` — result for “fitted relative affinity”: 4.43 z-score.
Under “fitted relative affinity”, `GTTTCATTCCTGATCTCTGGGTGCTAG` is recorded as 4.28 z-score.
Under “fitted relative affinity”, `GACGATTTCGGAACTGGAGACGTGCTA` is recorded as 3.82 z-score.
For `TCCTCTTTTTTGTTCCACGCGTGCTAG`, “fitted relative affinity” read 1.87 z-score.

Study 4 — cell line: HEK-293T/ACE2; concentration: 10 µM; time: 16 h; reference: vehicle
`CCn1cc(C(=O)O)c(=O)c2ccc(C)nc21` gave a viability of 98.9%.
For `N#C/C(=C1/SC[C@@H](c2ccc(Cl)cc2Cl)S1)n1ccnc1`, the viability was 101%.
For `CCN(CC)C(=O)N1CCN(C)CC1`, the viability was 98.2%.

Study 5 — action: inhibitor; concentration: 20 µM
Target: Replicase polyprotein 1ab, nsp13 helicase (rep, Severe acute respiratory syndrome coronavirus 2, UniProt P0DTD1)
With `CCCCCCCC/C=C\CCCCCCCC(=O)N[C@@H](CO)Cc1ccc(O)cc1` the inhibition was -4.67%.
The inhibition of `C[C@@H](N)c1ccc(C(=O)Nc2ccnc3[nH]ccc23)cc1` is reported as 7.7%.
The inhibition of `CCCCCCCCCCCCCCCC(=O)OC(CC(=O)[O-])C[N+](C)(C)C` (stereo not shown) is reported as 4.32%.
`O=C(Nc1ccc(C(F)(F)F)cn1)N1CCN(c2ncccc2C(F)(F)F)CC1` has an inhibition of 3.46%.
`Nc1nc2c(c(=O)[nH]1)C[C@@H](CCc1ccc(C(=O)N[C@@H](CCC(=O)O)C(=O)O)cc1)CN2` has an inhibition of 3.7%.
For `CN1CCC(=C2c3ccccc3CCc3sccc32)CC1`, the inhibition was 6.87%.
With `O=C(c1ccc(C(=O)N2CCC(N3CCCC3)CC2)c(Nc2ccccc2)c1)N1CCC(N2CCCC2)CC1` the inhibition was 9.27%.
`OC(CN1CCNCC1)Cn1c2ccc(Br)cc2c2cc(Br)ccc21` (stereo not shown) gave an inhibition of 9.67%.
`COC(=O)c1ccc2c(c1)NC(=O)/C2=C(\Nc1ccc(N(C)C(=O)CN2CCN(C)CC2)cc1)c1ccccc1` has an inhibition of 0.28%.
`O=C(CCCCCCNC(=O)c1cnc(N(c2ccccc2)c2ccccc2)nc1)NO` gave an inhibition of 6.77%.
For `Nc1ncnc2c1ncn2[C@@H]1O[C@H](COP(=O)(O)OP(=O)(O)OP(=O)(O)OP(=O)(O)OC[C@H]2O[C@@H](n3cnc4c(N)ncnc43)[C@H](O)[C@@H]2O)[C@@H](O)[C@H]1O`, the inhibition was 1.07%.
`Nc1cc(F)ccc1NC(=O)/C=C/c1cnn(C/C=C/c2ccccc2)c1` has an inhibition of 2.19%.
The inhibition of `CC(=O)Nc1ccc(O)cc1` is reported as 2.62%.
With `O=C1C(CC[S+]([O-])c2ccccc2)C(=O)N(c2ccccc2)N1c1ccccc1` (stereo not shown) the inhibition was 2.73%.
`CN1CCc2cc3c(cc2C1O)OCO3` (stereo not shown) has an inhibition of 3.61%.
The inhibition of `Cc1cc(-c2nncc3c(C(C)(C)C)c(OCc4ncnn4C)nn23)no1` is reported as -2.74%.
For `CN1CCN(C(=O)C2C(C(=O)O)[C@H]3CC[C@@H]2O3)CC1` (stereo partly shown), the inhibition was 2.9%.
`CCCCCNCC(N)=O` has an inhibition of 7.2%.
For `COc1ccsc1CNCC[C@@]1(c2ccccn2)CCOC2(CCCC2)C1`, the inhibition was 2.29%.
For `O=C(C[S+]([O-])Cc1ccco1)NC/C=C\COc1cc(CN2CCCCC2)ccn1` (stereo not shown), the inhibition was 4.56%.
`CCN(CC)C(=O)N[C@H]1C[C@@H]2c3cccc4[nH]cc(c34)C[C@H]2N(C)C1` has an inhibition of 9.73%.
`CC(=O)O[C@]1(C(C)=O)CC[C@H]2[C@@H]3C=C(C)C4=CC(=O)CC[C@@H]4[C@H]3CC[C@@]21C` has an inhibition of 6.83%.
The inhibition of `C#C[C@]1(O)C=C[C@H]2[C@@H]3CCC4=CC(=O)CC[C@@H]4[C@H]3CC[C@@]21CC` is reported as 9.41%.
`O=C1N=C(N2CCOCC2)CN1c1ccc(Cl)cc1` gave an inhibition of 6.76%.
With `O=C1CCCN1CC#CCN1CCCC1` the inhibition was 5.78%.

Study 6 — method: competition protein-binding microarray; molecule type: double-stranded DNA, one strand shown; medium: in vitro; concentration: 2 µM; together with: Cbf1 competitor, 0.05 µM; direction: higher = stronger binding
Target: Phosphate system positive regulatory protein PHO4, full length, GST-tagged (PHO4, Saccharomyces cerevisiae, UniProt P07270, residues 1-312)
Notes: whole 60-bp probe, lowest competitor level
Residues (chain): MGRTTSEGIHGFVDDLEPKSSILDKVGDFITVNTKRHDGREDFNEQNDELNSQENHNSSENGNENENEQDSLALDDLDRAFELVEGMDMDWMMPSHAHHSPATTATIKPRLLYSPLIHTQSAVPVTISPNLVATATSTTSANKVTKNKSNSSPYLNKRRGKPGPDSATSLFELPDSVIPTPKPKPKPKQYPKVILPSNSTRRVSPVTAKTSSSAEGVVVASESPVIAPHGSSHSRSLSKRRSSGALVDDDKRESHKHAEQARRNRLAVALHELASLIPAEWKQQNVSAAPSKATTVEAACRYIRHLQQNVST
`GAATTACTCATTTGTTTCGTGCGATTTCCTATTGCGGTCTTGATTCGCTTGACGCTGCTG` has a fluorescence intensity of 5020 a.u.
With `CGGGGTTAAGTTTTGCACGTGTTTTGCTTGCAGCAGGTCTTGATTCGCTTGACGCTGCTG` the fluorescence intensity was 16500 a.u.
`CTAACGAAGGTTTGTGGAGTGGGTGACAAGCCAAGTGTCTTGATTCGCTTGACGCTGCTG` gave a fluorescence intensity of 3840 a.u.
The fluorescence intensity of `CATACCCAACCTTGGTGGGTGGGTGAAGATATTTGTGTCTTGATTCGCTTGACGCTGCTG` is reported as 4150 a.u.
The fluorescence intensity of `GTATTCAAGCAAGTACACGTGCGGAAGTTGTACCAGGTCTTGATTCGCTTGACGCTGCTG` is reported as 18700 a.u.

For quick reference, copied from above (study 3):
Under “fitted relative affinity”, `TCAAATGTCCTTTCTCCAACTGTGCTA` is recorded as 5.17 z-score.
Under “fitted relative affinity”, `GTTTCATTCCTGATCTCTGGGTGCTAG` is recorded as 4.28 z-score.
Under “fitted relative affinity”, `GACGGTTTCGTGTTTCGGGACGTGCTA` is recorded as 4.25 z-score.
